{"data": "Results of several laboratories", "note": "Lines come from different studies, so protocols differ."}
{"Structure (SMILES)": "O=S(=O)(N[C@H]1CCC[C@@H](N2c3ccccc3CCc3ccccc32)[C@@H]1O)c1ccc(OC(F)(F)F)cc1", "host": "mouse", "sample": "plasma", "route": "oral", "dose": "100 mg/kg", "setting": "solution", "AUC": "11700 ng·h/mL"}
{"Structure (SMILES)": "COC1C=COC2(C)Oc3c(C)c(O)c4c(c3C2=O)C2=NC3(CCN(CC(C)C)CC3)NC2=C(NC(=O)C(C)=CC=CC(C)C(O)C(C)C(O)C(C)C(OC(=O)c2cccnc2)C1C)C4=O (stereo not shown)", "host": "CD-1 mouse", "sample": "plasma", "route": "oral", "dose": "12.5 mg/kg", "setting": "efficacy dose", "AUC": "133000 ng·h/mL"}
{"Structure (SMILES)": "O=c1c(-c2cnn(-c3ccccc3)c2)c(C(F)(F)F)oc2c(O)c(O)ccc12", "host": "mouse", "route": "intraperitoneal", "dose": "100 mg/kg", "setting": "DMSO vehicle", "AUC": "19.6 µM·h"}
{"Structure (SMILES)": "CN[C@H](CC(C)C)C(=O)N[C@H]1C(=O)N[C@@H](CC(N)=O)C(=O)N[C@H]2C(=N)N[C@H]3C(=O)N[C@H](C(=O)N[C@H](C(=O)NCCC[N+](C)(C)C)c4cc(O)cc(O)c4-c4cc3ccc4O)[C@H](O)c3ccc(c(Cl)c3)Oc3cc2cc(c3O[C@@H]2O[C@H](CO)[C@@H](O)[C@H](O)[C@H]2O[C@H]2C[C@](C)(NCc3ccc(-c4ccc(Cl)cc4)cc3)[C@H](O)[C@H](C)O2)Oc2ccc(cc2Cl)[C@H]1O", "host": "mouse", "route": "intravenous", "dose": "10 mg/kg", "AUC": "116 µM·h"}
{"Structure (SMILES)": "OCCn1nc(-c2ccccc2)c2c(Cl)c(-c3ccccc3)nnc21", "host": "mouse juvenile P20", "sample": "plasma", "route": "intraperitoneal", "dose": "100 mg/kg", "AUC": "5.7 µM·h"}
{"Structure (SMILES)": "COC1C=COC2(C)Oc3c(C)c(O)c4c(c3C2=O)C2=NC3(CCN(CC(C)C)CC3)NC2=C(NC(=O)C(C)=CC=CC(C)C(O)C(C)C(O)C(C)C(OC(=O)Nc2cscn2)C1C)C4=O (stereo not shown)", "host": "CD-1 mouse", "sample": "plasma", "route": "oral", "dose": "12.5 mg/kg", "setting": "efficacy dose", "AUC": "40000 ng·h/mL"}
{"Structure (SMILES)": "CC(C)(O)Cn1nc(-c2ccccc2)c2c(Cl)c(-c3ccccc3)nnc21", "host": "mouse juvenile P20", "sample": "plasma", "route": "intraperitoneal", "dose": "130 mg/kg", "AUC": "25.7 µM·h"}
{"Structure (SMILES)": "CN[C@H](CC(C)C)C(=O)N[C@H]1C(=O)N[C@@H](CC(N)=O)C(=O)N[C@H]2CN[C@H]3C(=O)N[C@H](C(=O)N[C@H](C(=O)NCCCNC(=N)N)c4cc(O)cc(O)c4-c4cc3ccc4O)[C@H](O)c3ccc(c(Cl)c3)Oc3cc2cc(c3O[C@@H]2O[C@H](CO)[C@@H](O)[C@H](O)[C@H]2O[C@H]2C[C@](C)(NCc3ccc(-c4ccc(Cl)cc4)cc3)[C@H](O)[C@H](C)O2)Oc2ccc(cc2Cl)[C@H]1O", "host": "mouse", "route": "intravenous", "dose": "50 mg/kg", "AUC": "987 µM·h"}
{"Structure (SMILES)": "COc1ccccc1NC(=O)OC1C(C)C(OC)C=COC2(C)Oc3c(C)c(O)c4c(c3C2=O)C2=NC3(CCN(CC(C)C)CC3)NC2=C(NC(=O)C(C)=CC=CC(C)C(O)C(C)C(O)C1C)C4=O (stereo not shown)", "host": "CD-1 mouse", "sample": "plasma", "route": "oral", "dose": "12.5 mg/kg", "setting": "efficacy dose", "AUC": "41800 ng·h/mL"}
{"Structure (SMILES)": "COc1cccc2c1C(=O)c1c(O)c3c(c(O)c1C2=O)C[C@@](O)(C(=O)CO)C[C@@H]3O[C@H]1C[C@H](N)[C@H](O)[C@H](C)O1", "host": "NMRI mouse", "sample": "plasma", "route": "intravenous", "dose": "10 mg/kg", "AUC": "5050 ng·h/mL"}
{"note": "Excerpt of the above:"}
{"Structure (SMILES)": "OCCn1nc(-c2ccccc2)c2c(Cl)c(-c3ccccc3)nnc21", "host": "mouse juvenile P20", "sample": "plasma", "route": "intraperitoneal", "dose": "100 mg/kg", "AUC": "5.7 µM·h"}
